Assay results pooled from the literature.
Each line is one published result; not all experiments were run side by side.
Spike glycoprotein: Spike glycoprotein (Severe acute respiratory syndrome coronavirus 2, UniProt P0DTC2)
Spike glycoprotein RBD: Spike glycoprotein, RBD (Severe acute respiratory syndrome coronavirus 2, UniProt P0DTC2)

O=CC(O)C(O)C(O)C(O)COc1cc(O)c2c(=O)c(OCC(O)C(O)C(O)C(O)C=O)c(-c3ccc(O)c(O)c3)oc2c1 (stereo not drawn)  Kd (Spike glycoprotein; binding): 0.0947 µM
CC(C)C[C@H](NC(=O)[C@H](CC(=O)O)NC(=O)[C@H](CCC(=O)O)NC(=O)[C@H](C)NC(=O)[C@H](CCC(=O)O)NC(=O)[C@H](Cc1c[nH]cn1)NC(=O)[C@@H](N)CC(N)=O)C(=O)N[C@@H](Cc1ccccc1)C(=O)N[C@@H](Cc1ccc(O)cc1)C(=O)N[C@@H](CCC(N)=O)C(=O)N[C@@H](CO)C(=O)O  Kd (Spike glycoprotein; binding): 1.53 µM
CCCC[C@H](NC(=O)[C@H](CO)NC(=O)[C@H](C)NC(=O)[C@H](CCC(=O)O)NC(=O)[C@H](C)NC(=O)[C@H](Cc1c[nH]cn1)NC(=O)CNC(=O)[C@H](CC(C)C)NC(=O)[C@H](CCC(=O)O)NC(=O)[C@H](CC(=O)O)NC(=O)[C@H](CC(C)C)NC(=O)[C@H](CC(C)C)NC(=O)[C@H](CCCNC(=N)N)NC(=O)[C@H](CCCC)NC(=O)[C@H](CCC(=O)O)NC(=O)[C@H](CCC(=O)O)NC(=O)[C@H](Cc1ccc(O)cc1)NC(=O)[C@@H](NC(=O)[C@H](CCCCN)NC(=O)[C@H](CCC(N)=O)NC(=O)[C@H](CC(C)C)NC(=O)[C@@H](NC(=O)[C@H](Cc1c[nH]c2ccccc12)NC(=O)[C@H](CCC(=O)O)NC(=O)[C@H](CCCCN)NC(=O)[C@@H](N)CC(=O)O)[C@@H](C)CC)[C@@H](C)CC)C(=O)N[C@@H](CCCNC(=N)N)C(=O)N[C@H](C(=O)N[C@@H](CO)C(=O)N[C@@H](CC(=O)O)C(=O)N[C@@H](CCC(=O)O)C(=O)N[C@H](C(=O)N[C@@H](Cc1ccc(O)cc1)C(=O)N[C@@H](CCC(=O)O)C(=O)N[C@@H](Cc1ccccc1)C(=O)N[C@@H](CCCC)C(=O)N[C@@H](CCCCN)C(=O)N[C@@H](CCCCN)C(N)=O)[C@@H](C)CC)C(C)C  Kd (Spike glycoprotein; binding, SPR): 0.013 µM
CC[C@H](C)[C@H](NC(=O)[C@H](CC(C)C)NC(=O)[C@H](CC(=O)O)NC(=O)[C@H](CO)NC(=O)[C@@H](NC(=O)[C@H](CCCNC(=N)N)NC(=O)[C@H](CCSC)NC(=O)[C@H](CO)NC(=O)[C@H](C)NC(=O)[C@H](CCC(=O)O)NC(=O)[C@H](C)NC(=O)[C@H](Cc1c[nH]cn1)NC(=O)CNC(=O)[C@H](CC(C)C)NC(=O)[C@H](CCC(=O)O)NC(=O)[C@H](CC(=O)O)NC(=O)[C@H](CC(C)C)NC(=O)[C@H](CC(C)C)NC(=O)[C@H](CCCNC(=N)N)NC(=O)[C@H](CCSC)NC(=O)[C@@H](NC(=O)[C@H](CCC(=O)O)NC(=O)[C@H](Cc1ccc(O)cc1)NC(=O)[C@@H](NC(=O)[C@H](CCCCN)NC(=O)[C@H](CCC(N)=O)NC(=O)[C@H](CC(C)C)NC(C)=O)[C@@H](C)CC)[C@@H](C)CC)C(C)C)C(=O)N[C@@H](Cc1ccc(O)cc1)C(=O)N[C@@H](CCC(=O)O)C(=O)N[C@@H](Cc1ccccc1)C(=O)N[C@@H](CCSC)C(=O)N[C@@H](CCCCN)C(=O)N[C@@H](CCCCN)C(=O)NCC(=O)N[C@@H](CC(=O)O)C(=O)N[C@@H](CCC(=O)O)C(=O)N[C@@H](CCCNC(=N)N)C(=O)N[C@@H](CC(C)C)C(=O)N[C@@H](CC(C)C)C(=O)N[C@@H](CCC(=O)O)C(=O)N[C@@H](CCC(=O)O)C(=O)N[C@@H](C)C(=O)N[C@@H](CCC(=O)O)C(=O)N[C@@H](CCCNC(=N)N)C(=O)N[C@@H](CC(C)C)C(=O)N[C@@H](CC(C)C)C(=O)N[C@@H](CCC(=O)O)C(=O)N[C@@H](CCC(=O)O)C(=O)N[C@H](C(N)=O)C(C)C  Kd (Spike glycoprotein; binding, BLI): 0.00611 µM
CC[C@H](C)[C@H](NC(=O)[C@H](CCC(=O)O)NC(=O)[C@H](CCC(N)=O)NC(=O)[C@H](CC(C)C)NC(=O)[C@@H]1CCCN1C(=O)[C@H](Cc1ccc(O)cc1)NC(=O)[C@@H](NC(=O)[C@H](CCC(N)=O)NC(=O)[C@H](C)NC(=O)[C@@H](NC(=O)[C@@H](NC(=O)[C@H](CO)NC(=O)[C@H](CS)NC(=O)[C@H](CCC(=O)O)NC(=O)[C@H](CCCCN)NC(=O)[C@H](CC(C)C)NC(=O)[C@H](Cc1ccccc1)NC(=O)[C@H](C)NC(=O)[C@H](CO)NC(=O)[C@H](Cc1c[nH]c2ccccc12)NC(=O)[C@H](CCCCN)NC(=O)[C@@H](N)CC(=O)O)[C@@H](C)O)[C@@H](C)CC)[C@@H](C)CC)C(=O)O  Kd (Spike glycoprotein RBD; pH 7.4): > 1000 µM
CNC(C)C1C(O)CC2(C)C3CCC4C(C)(C)C(NC)CCC45CC35CCC12C (stereo not drawn)  Kd (Spike glycoprotein; binding, biolayer interferometry): 38.7 µM
CC1COC2(OC3CC4C5CC(OC6OC(C)C(O)C(OC7OC(C)C(O)C(O)C7O)C6O)C6CC(O)CCC6(C)C5CCC4(C)C3C2C)C(O)C1 (stereo not drawn)  Kd (Spike glycoprotein, S1 subunit (Severe acute respiratory syndrome coronavirus 2, UniProt P0DTC2); binding): 3.76 µM
O=C(C=Cc1ccc(O)c(O)c1)OC1CC(O)(C(=O)O)CC(OC(=O)C=Cc2ccc(O)c(O)c2)C1O (stereo not drawn)  Kd (Spike glycoprotein; binding): 18.3 µM
CC[C@H](C)[C@H](NC(=O)[C@H](CCCCN)NC(=O)[C@H](CCC(N)=O)NC(=O)[C@H](CC(C)C)NC(=O)[C@H](CO)NC(=O)[C@H](Cc1c[nH]c2ccccc12)NC(=O)[C@H](CCC(=O)O)NC(=O)[C@H](CCCCN)NC(=O)[C@H](CC(=O)O)NC(C)=O)C(=O)N[C@@H](Cc1ccc(O)cc1)C(=O)N[C@@H](CCC(=O)O)C(=O)N[C@@H](CCCC(=O)NCCN(CC(=O)NCCN(CC(=O)NCCN(CC(=O)NCCN(CC(=O)N[C@@H](CCCNC(=N)N)C(N)=O)C(=O)Cn1cnc2c(=O)[nH]c(N)nc21)C(=O)Cn1ccc(N)nc1=O)C(=O)Cn1ccc(N)nc1=O)C(=O)Cn1cnc2c(=O)[nH]c(N)nc21)C(=O)N[C@@H](CSSC)C(=O)N[C@@H](CCCNC(=N)N)C(=O)N[C@@H](CC(C)C)C(=O)N[C@@H](CC(C)C)C(=O)N[C@@H](CC(=O)O)C(=O)N[C@@H](CCC(=O)O)C(=O)N[C@@H](CC(C)C)C(=O)NCC(=O)N[C@@H](Cc1c[nH]cn1)C(=O)N[C@@H](C)C(=O)N[C@@H](CCC(=O)O)C(=O)N[C@@H](C)C(=O)N[C@@H](CO)C(=O)N[C@@H](CCSC)C(=O)N[C@@H](CCCNC(=N)N)C(=O)N[C@H](C(=O)N[C@@H](CO)C(=O)N[C@@H](CC(=O)O)C(=O)N[C@@H](CCCCNC(=O)CN(CCNC(=O)CN(CCNC(=O)CN(CCNC(=O)CN(CCNC(=O)[C@H](CCCNC(=N)N)NC(C)=O)C(=O)Cn1ccc(N)nc1=O)C(=O)Cn1cnc2c(=O)[nH]c(N)nc21)C(=O)Cn1cnc2c(=O)[nH]c(N)nc21)C(=O)Cn1ccc(N)nc1=O)C(=O)N[C@H](C(=O)N[C@@H](Cc1ccc(O)cc1)C(=O)N[C@@H](CCC(=O)O)C(=O)N[C@@H](Cc1ccccc1)C(=O)N[C@@H](CCSC)C(=O)N[C@@H](CCCCN)C(=O)N[C@@H](CCCCN)C(N)=O)[C@@H](C)CC)C(C)C  Kd (Spike glycoprotein; binding, SPR): 0.00032 µM
CCCCCCCCCCCCCCCC(=O)N[C@@H](CCC(=O)NCCOCCOCCC(=O)NCCOCCOCCC(=O)NCCCC[C@H](NC(=O)[C@H](CC(=O)O)NC(=O)[C@H](CC(C)C)NC(=O)[C@H](Cc1ccc(O)cc1)NC(=O)[C@H](CCCCN)NC(=O)[C@H](CO)NC(=O)[C@H](Cc1ccc(O)cc1)NC(=O)[C@H](CC(=O)O)NC(=O)[C@H](CO)NC(=O)[C@@H](NC(=O)[C@H](Cc1ccccc1)NC(=O)[C@@H](NC(=O)CNC(=O)[C@H](CCC(N)=O)NC(=O)[C@@H](CO)NC(=O)[C@@H](N)Cc1c[nH]cn1)[C@@H](C)O)[C@@H](C)O)C(=O)N[C@@H](CCCNC(=N)N)C(=O)N[C@@H](CCCNC(=N)N)C(=O)N[C@@H](C)C(=O)N[C@@H](CCC(N)=O)C(=O)N[C@@H](CC(=O)O)C(=O)N[C@@H](Cc1ccccc1)C(=O)N[C@H](C(=O)N[C@@H](CCC(N)=O)C(=O)N[C@@H](Cc1c[nH]c2ccccc12)C(=O)N[C@@H](CC(C)C)C(=O)N[C@@H](CC(C)C)C(=O)N[C@@H](CC(N)=O)C(=O)N[C@H](C(=O)NCC(=O)NCC(=O)N1CCC[C@H]1C(=O)N[C@@H](CO)C(=O)N[C@@H](CO)C(=O)NCC(=O)N[C@@H](C)C(=O)N1CCC[C@H]1C(=O)N1CCC[C@H]1C(=O)N1CCC[C@H]1C(=O)N[C@@H](CO)C(N)=O)[C@@H](C)O)C(C)C)C(=O)O  AUC(0-t) (rhesus monkey, plasma; subcutaneous, 60 µg/kg, single dose): 301 ng·h/mL
CC(C)C[C@H](NC(=O)[C@H](Cc1cn(CC(=O)O)c2ccccc12)NC(=O)[C@H](CCCNC(=N)N)NC(=O)[C@H]1CCC[C@@H]1NC(=O)[C@H](CCC(=O)O)NC(=O)[C@H](CC(=O)O)NC(=O)[C@H](CC(=O)O)NC(=O)[C@@H](N)CCCNC(=N)N)C(=O)N[C@H]1CCC[C@@H]1C(=O)N[C@H](C(=O)N[C@@H](CC(=O)O)C(=O)N[C@H]1CCC[C@@H]1C(=O)N[C@H](C(=O)N[C@@H](Cc1ccc(O)cc1)C(=O)N[C@@H](CCC(=O)O)C(=O)N[C@H]1CCC[C@@H]1C(=O)N[C@@H](Cc1c[nH]c2ccccc12)C(=O)N[C@@H](Cc1c[nH]cn1)C(N)=O)C(C)C)[C@@H](C)O  Kd (Spike glycoprotein RBD): 2.1 µM
CC[C@H](C)[C@H](NC(=O)[C@H](CCCCNC(=O)CN(CCNC(=O)CN(CCNC(=O)CN(CCNC(=O)CN(CCNC(=O)CN(CCNC(=O)[C@H](CCCNC(=N)N)NC(C)=O)C(=O)Cn1cc(C)c(=O)[nH]c1=O)C(=O)Cn1ccc(N)nc1=O)C(=O)Cn1cnc2c(=O)[nH]c(N)nc21)C(=O)Cn1cnc2c(=O)[nH]c(N)nc21)C(=O)Cn1ccc(N)nc1=O)NC(=O)[C@H](CC(=O)O)NC(=O)[C@H](CO)NC(=O)[C@H](C)NC(=O)[C@H](CCCNC(=N)N)NC(=O)[C@H](CCSC)NC(=O)[C@H](CO)NC(=O)[C@H](C)NC(=O)[C@H](CCC(=O)O)NC(=O)[C@H](C)NC(=O)[C@H](Cc1c[nH]cn1)NC(=O)CNC(=O)[C@H](CC(C)C)NC(=O)[C@H](CCC(=O)O)NC(=O)[C@H](CC(=O)O)NC(=O)[C@H](CC(C)C)NC(=O)[C@H](CC(C)C)NC(=O)[C@H](CCCNC(=N)N)NC(=O)[C@H](CSSC)NC(=O)[C@H](CCCC(=O)NCCN(CC(=O)NCCN(CC(=O)NCCN(CC(=O)NCCN(CC(=O)N[C@@H](CCCNC(=N)N)C(N)=O)C(=O)Cn1cnc2c(=O)[nH]c(N)nc21)C(=O)Cn1ccc(N)nc1=O)C(=O)Cn1ccc(N)nc1=O)C(=O)Cn1cnc2c(=O)[nH]c(N)nc21)NC(=O)[C@H](CCC(=O)O)NC(=O)[C@H](Cc1ccc(O)cc1)NC(=O)[C@@H](NC(=O)[C@H](CCCCN)NC(=O)[C@H](CCC(N)=O)NC(=O)[C@H](CC(C)C)NC(=O)[C@@H](NC(=O)[C@H](Cc1c[nH]c2ccccc12)NC(=O)[C@H](CCC(=O)O)NC(=O)[C@H](CCCCN)NC(=O)[C@H](CC(=O)O)NC(C)=O)[C@@H](C)CC)[C@@H](C)CC)C(=O)N[C@@H](Cc1ccc(O)cc1)C(=O)N[C@@H](CCC(=O)O)C(=O)N[C@@H](Cc1ccccc1)C(=O)N[C@@H](CCSC)C(=O)N[C@@H](CCCCN)C(=O)N[C@@H](CCCCN)C(N)=O  Kd (Spike glycoprotein; binding, SPR): 0.00022 µM

Some of these lines once more:
CC[C@H](C)[C@H](NC(=O)[C@H](CCC(=O)O)NC(=O)[C@H](CCC(N)=O)NC(=O)[C@H](CC(C)C)NC(=O)[C@@H]1CCCN1C(=O)[C@H](Cc1ccc(O)cc1)NC(=O)[C@@H](NC(=O)[C@H](CCC(N)=O)NC(=O)[C@H](C)NC(=O)[C@@H](NC(=O)[C@@H](NC(=O)[C@H](CO)NC(=O)[C@H](CS)NC(=O)[C@H](CCC(=O)O)NC(=O)[C@H](CCCCN)NC(=O)[C@H](CC(C)C)NC(=O)[C@H](Cc1ccccc1)NC(=O)[C@H](C)NC(=O)[C@H](CO)NC(=O)[C@H](Cc1c[nH]c2ccccc12)NC(=O)[C@H](CCCCN)NC(=O)[C@@H](N)CC(=O)O)[C@@H](C)O)[C@@H](C)CC)[C@@H](C)CC)C(=O)O  Kd (Spike glycoprotein RBD; pH 7.4): > 1000 µM
